Measurements gathered from unrelated publications.
Every numbered part comes from another study and shows a few of its results, in no order. Values joined by “and” are separate records of one study, mostly repeats; a detail may differ.

Sample 1 — route: subcutaneous; dose: 0.3 mg/kg/day DON equivalent; time: 5 days; direction: higher = more metabolite; quantity: metabolite peak area
SMILES: CC(=O)N[C@@H](Cc1c[nH]c2ccccc12)C(=O)N[C@@H](CCC(=O)C=[N+]=[N-])C(=O)OC(C)C
UPLC-MS/MS metabolomics, measured: cytosine; EL4, C57BL/6 CES1-/- mice, EL4 tumour, tumour: 596000 a.u. and 1.04e+06 a.u. and 1.28e+06 a.u. and 1.36e+06 a.u. and 1.47e+06 a.u. and 1.01e+06 a.u.
UPLC-MS/MS metabolomics, measured: cysteine; EL4, C57BL/6 CES1-/- mice, EL4 tumour, tumour: 1e+07 a.u. and 1.13e+07 a.u. and 4.92e+06 a.u. and 7.56e+06 a.u. and 9.75e+06 a.u. and 3.92e+06 a.u.
UPLC-MS/MS, measured: trigonelline; C57BL/6 CES1-/- mice, EL4 tumour: 4.68e+07 a.u. and 3.06e+07 a.u. and 3.04e+07 a.u. and 2.32e+07 a.u. and 2.48e+07 a.u. and 3.99e+07 a.u.
UPLC-MS/MS, measured: trans-urocanate; C57BL/6 CES1-/- mice, EL4 tumour: 2.65e+06 a.u. and 1.14e+07 a.u. and 8.36e+06 a.u. and 2.15e+07 a.u. and 5.35e+06 a.u.

Sample 2 — cell line: normal organoid sample F; method: CellTiter-Glo; species: human; medium: normal-adjacent epithelium; concentration: 1 µM; reference: DMSO; quantity: viability
CC(=O)C1=C(C)N(c2cccc(C(F)(F)F)c2)C(=O)N[C@@H]1c1ccc(C#N)nc1: 115% and 109%
CC(=O)Nc1c(C(C)=O)c(=O)n(C)c2nc(-c3ccc(Cl)cc3Cl)c(-c3ccc(Cl)cc3)cc12: 107% and 115%
O=C(Nc1cnc(Oc2ccc(F)cc2)nc1)N1CCc2ncccc2[C@@H]1c1ccc(F)cc1: 59.6% and 157%
O=C(NS(=O)(=O)c1ccc(NCC2CCOCC2)c([N+](=O)[O-])c1)c1ccc(N2CCN(Cc3ccc(C(F)(F)F)cc3-c3ccc(Cl)cc3)CC2)cc1Oc1cnc2[nH]ccc2c1: 110% and 125%
C[C@H](NC(=O)Nc1cc2[nH]ncc2c(CO)n1)c1ccccn1: 98.1% and 97.3%
O=C(O)c1cc(-c2ccc(C3CCNCC3)cc2)c2ccc(-c3ccc(C(F)(F)F)cc3)cc2c1: 102% and 81.7%
Cc1c(Oc2ccc(F)cc2)c(OC(C)C)nn1-c1ccc(C2CC2)cn1: 178% and 142%
Cc1cnc(-c2cc(Cl)ccc2F)cc1-n1c(=O)n(CC(N)=O)c2cnccc21: 120% and 183%
CC(=O)c1c(NS(C)(=O)=O)c2cc(-c3ccc(Cl)cc3)c(-c3ccc(Cl)cc3Cl)nc2n(C)c1=O: 118% and 104%
Cc1ccc2[nH]c(CNCCCc3ccncc3)cc(=O)c2c1: 129% and 134%
Cc1nc(N2CC[C@@H](O)C2)ncc1-c1cc(C(F)(F)F)cc2[nH]ncc12: 98.3% and 102%
CC1=C(C#N)C(c2ccc3[nH]nc(C)c3c2)C(C#N)=C(C)N1: 106% and 118%

Sample 3 — organism: Cryptosporidium parvum; method: time-kill; cells: HCT-8; strain: nanoluciferase-expressing; reference: DMSO control; quantity: luminescence remaining
SMILES: CN(C(=O)c1ccn2ncc(-c3ccc(C(N)=O)cc3)c2c1)c1ccc(C#N)cn1
0.7407 µM, 0 h: 98% and 99.4% and 90.3% and 97.4% and 91.4% and 90.1% and 103% and 91.2%
0.00914 µM, 72 h: 99.5% and 77.9%
2.222 µM, 4 h: 116% and 131%

Sample 4 — read-out: enzyme activity; mode: inhibitor; concentration: 77 µM; reference: untreated; quantity: remaining activity
Target: DNA polymerase theta, ATPase domain (POLQ, Homo sapiens, UniProt O75417)
Chain of UniProt O75417 (whole entry, unmodified, looked up): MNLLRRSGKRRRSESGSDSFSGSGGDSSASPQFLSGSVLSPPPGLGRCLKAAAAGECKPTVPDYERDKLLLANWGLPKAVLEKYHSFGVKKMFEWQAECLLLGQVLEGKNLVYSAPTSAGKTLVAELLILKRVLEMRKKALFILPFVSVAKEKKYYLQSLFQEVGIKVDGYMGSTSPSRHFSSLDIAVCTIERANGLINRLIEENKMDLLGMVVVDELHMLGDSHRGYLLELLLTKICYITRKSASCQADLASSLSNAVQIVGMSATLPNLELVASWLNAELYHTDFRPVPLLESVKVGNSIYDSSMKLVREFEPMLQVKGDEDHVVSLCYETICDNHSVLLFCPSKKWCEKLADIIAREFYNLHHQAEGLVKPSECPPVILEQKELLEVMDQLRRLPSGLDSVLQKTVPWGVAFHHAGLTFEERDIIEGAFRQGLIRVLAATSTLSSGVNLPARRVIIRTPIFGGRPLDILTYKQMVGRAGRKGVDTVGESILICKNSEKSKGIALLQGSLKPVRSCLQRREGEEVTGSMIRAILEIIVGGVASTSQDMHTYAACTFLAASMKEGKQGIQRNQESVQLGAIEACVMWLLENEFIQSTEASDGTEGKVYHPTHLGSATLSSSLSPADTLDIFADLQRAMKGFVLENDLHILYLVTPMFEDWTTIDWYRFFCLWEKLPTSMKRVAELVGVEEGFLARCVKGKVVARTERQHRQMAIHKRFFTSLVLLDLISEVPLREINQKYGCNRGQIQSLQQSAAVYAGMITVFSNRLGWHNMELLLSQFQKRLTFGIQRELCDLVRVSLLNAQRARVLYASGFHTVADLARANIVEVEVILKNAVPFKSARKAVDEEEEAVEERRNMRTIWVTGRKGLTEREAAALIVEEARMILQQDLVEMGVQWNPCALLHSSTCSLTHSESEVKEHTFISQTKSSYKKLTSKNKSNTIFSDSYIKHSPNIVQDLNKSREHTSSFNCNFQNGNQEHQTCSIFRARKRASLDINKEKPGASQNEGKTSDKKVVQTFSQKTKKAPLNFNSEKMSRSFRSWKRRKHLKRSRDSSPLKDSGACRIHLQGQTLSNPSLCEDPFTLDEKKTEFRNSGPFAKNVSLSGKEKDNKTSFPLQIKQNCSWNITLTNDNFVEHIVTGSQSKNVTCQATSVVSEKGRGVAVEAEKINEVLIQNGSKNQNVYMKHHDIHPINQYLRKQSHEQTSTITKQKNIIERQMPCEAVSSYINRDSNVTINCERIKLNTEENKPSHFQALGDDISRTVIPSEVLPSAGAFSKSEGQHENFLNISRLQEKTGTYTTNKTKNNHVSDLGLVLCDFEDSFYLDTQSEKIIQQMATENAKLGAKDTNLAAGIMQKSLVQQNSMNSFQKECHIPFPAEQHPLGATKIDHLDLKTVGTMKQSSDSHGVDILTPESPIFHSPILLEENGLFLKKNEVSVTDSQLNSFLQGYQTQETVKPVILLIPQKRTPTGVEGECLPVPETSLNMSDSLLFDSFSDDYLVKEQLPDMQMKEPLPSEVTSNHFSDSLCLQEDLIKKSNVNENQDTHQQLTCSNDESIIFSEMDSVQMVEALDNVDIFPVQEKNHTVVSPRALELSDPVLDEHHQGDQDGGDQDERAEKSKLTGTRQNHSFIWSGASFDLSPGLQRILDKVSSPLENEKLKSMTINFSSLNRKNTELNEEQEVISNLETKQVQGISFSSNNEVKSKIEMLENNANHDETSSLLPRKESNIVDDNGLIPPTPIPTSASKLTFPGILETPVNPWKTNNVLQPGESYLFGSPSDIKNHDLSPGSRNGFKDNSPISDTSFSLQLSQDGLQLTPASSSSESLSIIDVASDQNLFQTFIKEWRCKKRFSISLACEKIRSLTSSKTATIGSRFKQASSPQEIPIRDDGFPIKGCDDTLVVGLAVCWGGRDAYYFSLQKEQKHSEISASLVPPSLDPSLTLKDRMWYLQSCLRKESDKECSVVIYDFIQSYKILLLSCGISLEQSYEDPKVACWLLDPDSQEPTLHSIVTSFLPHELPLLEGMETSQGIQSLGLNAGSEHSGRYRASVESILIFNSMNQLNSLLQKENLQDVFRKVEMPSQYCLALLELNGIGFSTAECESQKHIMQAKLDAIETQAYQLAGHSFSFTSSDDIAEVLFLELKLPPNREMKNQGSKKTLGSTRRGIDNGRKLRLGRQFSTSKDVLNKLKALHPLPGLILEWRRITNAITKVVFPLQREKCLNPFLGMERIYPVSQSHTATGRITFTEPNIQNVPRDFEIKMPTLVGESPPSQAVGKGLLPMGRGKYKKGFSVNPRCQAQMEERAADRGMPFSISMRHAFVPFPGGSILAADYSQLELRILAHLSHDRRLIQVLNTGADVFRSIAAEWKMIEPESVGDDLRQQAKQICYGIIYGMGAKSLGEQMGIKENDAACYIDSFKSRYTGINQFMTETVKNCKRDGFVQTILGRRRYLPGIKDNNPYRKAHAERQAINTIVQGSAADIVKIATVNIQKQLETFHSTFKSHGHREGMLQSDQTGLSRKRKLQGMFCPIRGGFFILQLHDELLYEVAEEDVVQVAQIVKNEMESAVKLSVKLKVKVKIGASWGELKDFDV
CCCS(=O)(=O)Nc1ccc(F)c(C(=O)c2c[nH]c3ncc(-c4ccc(Cl)cc4)cc23)c1F: 72.5%
Cc1ccc(-n2nc(C(C)(C)C)cc2NC(=O)Nc2ccc(OCCN3CCOCC3)c3ccccc23)cc1: 98.2%
CC(=O)O/N=C1/C(c2c(O)[nH]c3cc(Br)ccc23)=Nc2ccccc21: 103%
N#Cc1cnc2cnc(NCc3cccnc3)cc2c1Nc1ccc(F)c(Cl)c1: 101%

Single results of other studies
KRAS Q61H: GTPase KRas (KRAS, Homo sapiens, UniProt P01116, Q61H)
CC(=O)N1CCN(c2nc(OC[C@@H]3CCCN3C)nc3c2CCN(c2cccc4cccc(Cl)c24)C3)C[C@@H]1CC#N
IC50 (KRAS Q61H; target engagement in cells, BRET): 1200 nM

CCCCCCCCCCCCCCCCOP(=O)([O-])OCC[N+](C)(C)C
inhibition (THP-1; host cell growth; 0.02 µM): -3.67% and -0.39% and -0.86% and -0.93% and -1.49% and -4.56%

CCC(=O)N1CCN(c2nc(OC[C@@H]3CCCN3C)nc3c2CCN(c2cccc4cccc(Cl)c24)C3)C[C@@H]1CC#N
IC50 (KRAS Q61H; target engagement in cells, BRET): 1200 nM

C[C@@H]1[C@H](O)[C@@H](C)/C=C/C=C/C=C/C=C/C=C/C=C/C=C/[C@H](O[C@@H]2O[C@H](C)[C@@H](O)[C@H](N)[C@@H]2O)C[C@@H]2O[C@](O)(C[C@@H](O)C[C@@H](O)[C@H](O)CC[C@@H](O)C[C@@H](O)CC(=O)O[C@H]1C)C[C@H](O)[C@H]2C(=O)O
inhibition (THP-1; host cell growth; 0.01 µM): -2.42% and -0.69% and -1.39% and -1.97% and -0.92% and -0.28%

Excerpt of the above (sample 2):
CC(=O)Nc1c(C(C)=O)c(=O)n(C)c2nc(-c3ccc(Cl)cc3Cl)c(-c3ccc(Cl)cc3)cc12: 107% and 115%
Cc1c(Oc2ccc(F)cc2)c(OC(C)C)nn1-c1ccc(C2CC2)cn1: 178% and 142%
O=C(NS(=O)(=O)c1ccc(NCC2CCOCC2)c([N+](=O)[O-])c1)c1ccc(N2CCN(Cc3ccc(C(F)(F)F)cc3-c3ccc(Cl)cc3)CC2)cc1Oc1cnc2[nH]ccc2c1: 110% and 125%
Cc1cnc(-c2cc(Cl)ccc2F)cc1-n1c(=O)n(CC(N)=O)c2cnccc21: 120% and 183%
